Measurements collected from several papers.
Protocols differ between the studies behind these lines. Values joined by “and” are separate records of one study, mostly repeats; a detail may differ. Numbers after ± are the reported error.

CSCC[C@H](NC(=O)[C@H](CCCNC(=N)N)NC(=O)[C@H](CCCNC(=N)N)NC(=O)[C@H](CCCCN)NC(=O)[C@H](C)NC(=O)[C@H](CCCNC(=N)N)NC(=O)CNC(=O)[C@@H](NC(=O)CCNC(=O)c1ccc2c(c1)C(=O)OC21c2ccc(O)cc2Oc2cc(O)ccc21)[C@@H](C)O)C(=O)N[C@@H](CSCB(O)O)C(=O)N[C@@H](Cc1ccc(O)cc1)C(=O)N[C@@H](CSCB(O)O)C(=O)N[C@@H](CCCNC(=N)N)C(=O)N[C@@H](CCCNC(=N)N)C(N)=O  remaining peptide (HPLC peak area; 50% human serum; 100 µM, 2 h, pH 7.4, 37 °C; relative to: 0 h): 80.5% and 79.9% and 77.4%
C/C(=C\CCP(=O)(OCOC(=O)C1CCOCC1)Oc1ccc(C(C)C)cc1)CO (stereo not drawn)  remaining compound (50% Sprague-Dawley rat plasma; 100 µM, 2 h, pH 7.5, 37 °C): 0%
CC[C@@H](C)[C@@H](NC(=O)[C@@H](Cc1ccc(O)cc1)NC(=O)[C@H]1CCCN1C(=O)[C@@H](CCCNC(=N)N)NC(=O)[C@H](N)Cc1c[nH]cn1)C(=O)N[C@H](C)C(=O)N[C@H](Cc1c[nH]cn1)C(=O)N[C@H](CCCNC(=N)N)C(=O)N[C@@H](C(=O)N[C@H](Cc1ccc(O)cc1)C(=O)N[C@H](CO)C(=O)N[C@H](Cc1ccccc1)C(N)=O)C(C)C  remaining compound (10% human serum; 48 h): 95.3% and 94.6%
CC(C)=CCC[C@](C)(O[C@@H]1O[C@H](CO)[C@@H](O)[C@H](O)[C@H]1O)[C@H]1CC[C@]2(C)[C@@H]1[C@H](O)C[C@@H]1[C@@]3(C)CC[C@H](O)C(C)(C)[C@@H]3CC[C@]12C  remaining amount (rat plasma; 25 ng/mL, 24 h, room temperature): 100.1 ± 0.5%
CC(C)C[C@@H]1NC(=O)CNC(=O)[C@H](CC(N)=O)NC(=O)[C@H](CCCCN)NC(=O)[C@H]([C@@H](C)O)NC(=O)[C@@H]2CSSC[C@@H]3NC(=O)[C@H]([C@@H](C)O)NC(=O)CNC(=O)CNC(=O)[C@H](C(C)C)NC(=O)[C@@H]4CSSC[C@H](NC(=O)[C@H]([C@@H](C)O)NC(=O)[C@H](CSSC[C@H](NC(=O)[C@H](C(C)C)NC(=O)[C@@H]5CCCN5C1=O)C(=O)NCC(=O)N[C@@H](CCC(=O)O)C(=O)N[C@@H]([C@@H](C)O)C(=O)N4)NC(=O)CNC(=O)[C@@H]1CCCN1C(=O)[C@H]([C@@H](C)O)NC(=O)[C@H](CC(N)=O)NC3=O)C(=O)N[C@@H](CO)C(=O)N[C@@H](Cc1c[nH]c3ccccc13)C(=O)N1CCC[C@H]1C(=O)N[C@@H](C(C)C)C(=O)N2  remaining peptide (HPLC; ammonium bicarbonate 0.1 M; 180 µM, 7 days, pH 9.0, 37 °C, deamidation stability): 79 ± 2%
CSCC[C@H](NC(=O)[C@H](CCCCN)NC(=O)[C@H](CCCNC(=N)N)NC(=O)[C@H](CO)NC(=O)[C@H](Cc1c[nH]c2ccccc12)NC(=O)[C@H](CCCNC(=N)N)NC(=O)[C@H](CC(C)C)NC(=O)[C@H](N)Cc1ccccc1)C(=O)N1CCC[C@H]1C(=O)N[C@@H](CS)C(=O)N[C@H](C(=O)N[C@@H](CO)C(N)=O)C(C)C  remaining activity (12G5 competition, SUP-T1 cells; human plasma; 20 µM, 8 h, 37 °C): 48 ± 6%
CCCCN1CCC(COC(=O)c2ccc(N)c(O[11CH3])c2)CC1  remaining parent compound (rhesus monkey whole blood; 30 min): 73.2%
CSCC[C@H](NC(=O)[C@H](CCCCN)NC(=O)[C@H](CCCNC(=N)N)NC(=O)[C@H](CO)NC(=O)[C@H](Cc1c[nH]c2ccccc12)NC(=O)[C@H](CCCNC(=N)N)NC(=O)[C@H](CC(C)C)NC(=O)[C@@H](CO)NC(C)=O)C(=O)N1CCC[C@H]1C(=O)N[C@@H](CS)C(=O)N[C@H](C(=O)N[C@@H](CO)C(N)=O)C(C)C  remaining activity (12G5 competition, SUP-T1 cells; human plasma; concentration not given, 2 h): 65 ± 4%
CC(C)C[C@@H]1NC(=O)[C@H](CCCCN)NC(=O)[C@H](CC(N)=O)NC(=O)[C@H](CCCNC(=N)N)NC(=O)[C@H]([C@@H](C)O)NC(=O)[C@@H]2CSSC[C@@H]3NC(=O)[C@H]([C@@H](C)O)NC(=O)CNC(=O)CNC(=O)[C@H](C(C)C)NC(=O)[C@@H]4CSSC[C@H](NC(=O)[C@H]([C@@H](C)O)NC(=O)[C@H](CSSC[C@H](NC(=O)[C@H](C(C)C)NC(=O)[C@@H]5CCCN5C1=O)C(=O)NCC(=O)N[C@@H](CCC(=O)O)C(=O)N[C@@H]([C@@H](C)O)C(=O)N4)NC(=O)CNC(=O)[C@@H]1CCCN1C(=O)[C@H]([C@@H](C)O)NC(=O)[C@H](CC(N)=O)NC3=O)C(=O)N[C@@H](CO)C(=O)N[C@@H](Cc1c[nH]c3ccccc13)C(=O)N1CCC[C@H]1C(=O)N[C@@H](C(C)C)C(=O)N2  remaining peptide (HPLC; ammonium bicarbonate 0.1 M; 180 µM, 14 days, pH 9.0, 37 °C, deamidation stability): 92.4 ± 0.7%
CC[C@H](C)[C@H](NC(=O)[C@H](Cc1ccccc1)NC(=O)[C@H](CCC(=O)O)NC(=O)[C@H](CCCCN)NC(=O)[C@H](C)NC(=O)[C@H](C)NC(=O)[C@H](CCC(N)=O)NC(=O)CNC(=O)[C@H](CCC(=O)O)NC(=O)[C@H](CC(C)C)NC(=O)[C@H](Cc1ccc(O)cc1)NC(=O)[C@H](CO)NC(=O)[C@H](CO)NC(=O)[C@@H](NC(=O)[C@H](CC(=O)O)NC(=O)[C@H](CO)NC(=O)[C@@H](NC(=O)[C@H](Cc1ccccc1)NC(=O)[C@@H](NC(=O)CNC(=O)[C@H](CCC(=O)O)NC(=O)[C@H](C)NC(=O)N(N)Cc1c[nH]cn1)[C@@H](C)O)[C@@H](C)O)C(C)C)C(=O)N[C@@H](C)C(=O)N[C@@H](Cc1c[nH]c2ccccc12)C(=O)N[C@@H](CC(C)C)C(=O)N[C@H](C(=O)N[C@@H](CCCNC(=N)N)C(=O)NCC(=O)N[C@@H](CCCNC(=N)N)C(=O)NCC(=O)O)C(C)C  remaining peptide (HPLC-UV; Tris-HCl buffer; 0.1 mmol/l, 24 h, pH 7.4, 37 °C): > 96%
CC(C)C[C@@H]1NC(=O)CNC(=O)[C@H](CC(N)=O)NC(=O)[C@H](CCCNC(=N)N)NC(=O)[C@H]([C@@H](C)O)NC(=O)[C@@H]2CSSC[C@@H]3NC(=O)[C@H](CCCCN)NC(=O)CNC(=O)CNC(=O)[C@H](C(C)C)NC(=O)[C@@H]4CSSC[C@H](NC(=O)[C@H]([C@@H](C)O)NC(=O)[C@H](CSSC[C@H](NC(=O)[C@H](C(C)C)NC(=O)[C@@H]5CCCN5C1=O)C(=O)NCC(=O)N[C@@H](CCC(=O)O)C(=O)N[C@@H]([C@@H](C)O)C(=O)N4)NC(=O)CNC(=O)[C@@H]1CCCN1C(=O)[C@H]([C@@H](C)O)NC(=O)[C@H](CC(N)=O)NC3=O)C(=O)N[C@@H](CO)C(=O)N[C@@H](Cc1c[nH]c3ccccc13)C(=O)N1CCC[C@H]1C(=O)N[C@@H](C(C)C)C(=O)N2  remaining peptide (HPLC; ammonium bicarbonate 0.1 M; 180 µM, 7 days, pH 9.0, 37 °C, deamidation stability): 72.7 ± 2.9%
CC[C@H](C)[C@H](NC(=O)[C@H](CCCCN)NC(=O)[C@H](CCCCN)NC(=O)CNC(=O)[C@H](CCCCN)NC(=O)[C@H](CC(C)C)NC(=O)[C@H](CCCCN)NC(=O)[C@H](CCCNC(=N)N)NC(=O)[C@@H](NC(=O)[C@H](CC(C)C)NC(=O)[C@H](CCCNC(=N)N)NC(=O)[C@@H](N)CCCNC(=N)N)[C@@H](C)CC)C(=O)N[C@@H](Cc1ccc(O)cc1)C(=O)N[C@@H](CC(C)C)C(=O)N[C@@H](Cc1ccc(O)cc1)C(=O)N[C@@H](Cc1ccccc1)C(=O)N[C@@H](CCCCN)C(=O)N[C@@H](CC(C)C)C(=O)N[C@@H](CCC(N)=O)C(=O)N[C@@H](CC(C)C)C(=O)N[C@@H](CC(C)C)C(=O)N[C@@H](CCCCN)C(=O)N[C@@H](CCCCN)C(N)=O  remaining intact peptide (LC-MS; 25% human serum; 200 µM, 24 h, 37 °C): 83 ± 4%
CC[C@@H](C)[C@@H](NC(C)=O)C(=O)N[C@@H](CC(C)C)C(=O)N[C@@H](CCCNC(=N)N)C(=O)N[C@@H](Cc1c[nH]c2ccccc12)C(=O)N[C@@H](CO)C(=O)N[C@@H](CCCNC(=N)N)C(=O)N[C@@H](CCCCN)C(=O)N[C@@H](CC(C)C)C(=O)N1CCC[C@H]1C(=O)N[C@@H](CS)C(=O)N[C@H](C(=O)N[C@@H](CO)C(N)=O)C(C)C  remaining activity (12G5 competition, SUP-T1 cells; human plasma; 20 µM, 8 h, 37 °C): 71 ± 17%
CC(C)C[C@@H]1NC(=O)CNC(=O)[C@H](CC(N)=O)NC(=O)[C@H](CCCNC(=N)N)NC(=O)[C@H]([C@@H](C)O)NC(=O)[C@@H]2CSSC[C@@H]3NC(=O)[C@H]([C@@H](C)O)NC(=O)CNC(=O)CNC(=O)[C@H](C(C)C)NC(=O)[C@@H]4CSSC[C@H](NC(=O)[C@H]([C@@H](C)O)NC(=O)[C@H](CSSC[C@H](NC(=O)[C@H](C(C)C)NC(=O)[C@@H]5CCCN5C1=O)C(=O)N[C@@H](CCCCN)C(=O)N[C@@H](CCC(=O)O)C(=O)N[C@@H]([C@@H](C)O)C(=O)N4)NC(=O)CNC(=O)[C@@H]1CCCN1C(=O)[C@H]([C@@H](C)O)NC(=O)[C@H](CC(N)=O)NC3=O)C(=O)N[C@@H](CO)C(=O)N[C@@H](Cc1c[nH]c3ccccc13)C(=O)N1CCC[C@H]1C(=O)N[C@@H](C(C)C)C(=O)N2  remaining peptide (HPLC; ammonium bicarbonate; 180 µM, 14 days, pH 9.0, 25 °C, deamidation stability): 80.1 ± 8.8%
CC(C)[C@@H]1NC(=O)CNC(=O)[C@H](CC(N)=O)NC(=O)[C@H](CCCNC(=N)N)NC(=O)[C@H](Cc2ccc(O)cc2)NC(=O)[C@H](C(C)C)NC(=O)[C@@H](NC(=O)[C@@H](NC(=O)[C@H](CC(N)=O)NC(=O)[C@H](Cc2c[nH]c3ccccc23)NC(=O)[C@H](C)NC(=O)[C@H](Cc2ccccc2)NC(=O)CN)C(C)C)CSSC[C@@H](C(=O)N[C@@H](Cc2cnc[nH]2)C(=O)N[C@@H](CCCNC(=N)N)C(=O)N[C@@H](CCCNC(=N)N)C(=O)N[C@@H](C)C(=O)N[C@@H](CC(N)=O)C(N)=O)NC(=O)[C@H](C(C)C)NC(=O)[C@H](CCCNC(=N)N)NC1=O  remaining peptide (HPLC; mouse mammary gland homogenate; 2560 µM, 16.00 h, 37 °C, 50 mg/mL tissue): 26.1% and 32.4% and 29.8%
